Measured values gathered from unrelated publications.
A part holds a random share of what one study measured.

Series 1 — method: protein binding microarray; molecule type: double-stranded DNA, one strand shown; sample: in vitro; tested at: not given; reference: not given; direction: higher = stronger binding
Target: Histone acetyltransferase KAT6A, both winged helices, GST fusion (KAT6A, Homo sapiens, UniProt Q92794, residues 1-181)
Setting: 8-mer, flanks averaged, mean of 2 arrays, mostly near background
Target sequence (chain): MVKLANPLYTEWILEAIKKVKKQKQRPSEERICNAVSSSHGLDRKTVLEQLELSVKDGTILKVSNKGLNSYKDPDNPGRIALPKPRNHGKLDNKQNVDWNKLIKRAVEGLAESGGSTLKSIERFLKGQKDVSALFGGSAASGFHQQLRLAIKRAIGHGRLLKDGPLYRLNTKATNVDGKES
Sequence | E-score
AGGAGTGG | -0.194
AACTGTCC | -0.104
ATCATACA | 0.0312
ACGAACTG | -0.0527
CGGCACCA | 0.205
ATTTAACC | -0.022
AGTACTCC | -0.091

Series 2 — method: protein-binding microarray; molecule type: double-stranded DNA, one strand shown; sample: in vitro; tested at: 2200 nM top; setting: 60-bp whole probe; with: salmon DNA 0.4 mg/ml; reference: random background probes; direction: higher = stronger binding; all sequences stand within: GCCTAGCAC … GTCTTGATTCGCTTGACGCTGCTG
Target: Interferon regulatory factor 7, full length, phosphomimetic (IRF7, Homo sapiens, UniProt Q92985, residues 1-503, S471D/S472D/S475D/S476D/S477D/S483D/S484D/S487D)
Residues (chain): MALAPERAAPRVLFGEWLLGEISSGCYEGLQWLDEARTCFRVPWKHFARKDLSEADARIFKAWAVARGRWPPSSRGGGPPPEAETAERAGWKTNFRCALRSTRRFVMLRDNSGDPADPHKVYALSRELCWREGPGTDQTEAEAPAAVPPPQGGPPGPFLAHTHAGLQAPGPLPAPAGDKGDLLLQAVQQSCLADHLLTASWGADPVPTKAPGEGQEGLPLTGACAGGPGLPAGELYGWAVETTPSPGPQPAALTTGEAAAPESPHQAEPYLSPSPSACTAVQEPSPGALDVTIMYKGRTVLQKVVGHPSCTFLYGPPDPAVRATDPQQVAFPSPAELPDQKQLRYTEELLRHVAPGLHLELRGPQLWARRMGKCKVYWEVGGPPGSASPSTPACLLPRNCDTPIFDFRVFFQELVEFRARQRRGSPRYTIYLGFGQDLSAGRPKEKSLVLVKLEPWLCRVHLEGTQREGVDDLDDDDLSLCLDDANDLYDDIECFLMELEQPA
Sequence | fitted relative affinity [z-score]
GACAGTTTCGACTTTCGGGACGTGCTA | 10.4
GACTATGCCGACTTTGGAAGTGTGCTA | -0.246
TCAGCTTTCTTTATGTAACTGTGCTAG | 1.64
TTAGTACTGCTTTTCCTTTAGTGCTAG | 2.52
GACGGACTGGACTTTGGGGACGTGCTA | -0.838
TCAGCTCCCTTTCTCTCTGTGTGCTAG | 2.15
GACGATCTCAGACTTGAGACGTGCTAG | -0.0539
GCCGGACTGCTTTTCCTGACGTGCTAG | 0.408
TTAGGTATCCTTACCCTTTAGTGCTAG | 0.812
CTAGGTTTCGACTTTCGGTTAGTGCTA | 10.5

Series 3 — method: RNAcompete; molecule type: RNA; sample: in vitro; tested at: 20 nM; setting: 7-mer, probes averaged, single round; reference: mean of 7-mers; direction: higher = stronger binding
Target: PABPC1L2, full length, GST fusion (mouse, UniProt A0ABA7IW68)
Residues (chain): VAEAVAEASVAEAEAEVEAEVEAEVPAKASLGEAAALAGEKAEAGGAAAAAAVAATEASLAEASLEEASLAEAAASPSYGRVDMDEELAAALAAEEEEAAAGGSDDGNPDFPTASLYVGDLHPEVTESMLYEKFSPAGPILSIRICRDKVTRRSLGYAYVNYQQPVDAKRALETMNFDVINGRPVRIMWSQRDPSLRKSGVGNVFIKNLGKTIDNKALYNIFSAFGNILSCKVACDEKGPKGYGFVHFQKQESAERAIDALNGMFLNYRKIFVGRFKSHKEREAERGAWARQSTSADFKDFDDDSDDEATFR
Sequence | 7-mer Z-score
UGACUAG | -0.012
CGUGGCU | 0.131
CCUAUCG | -0.28
GUUGACU | -0.168
GAUUCUU | -0.318
GCCUCUA | -0.329
GGUCAUG | 0.0388
GUGCCAU | -0.151
CUAGUUG | -0.257
GAUCGUA | -0.289
UGGUGUG | -0.179
UCCUUGA | -0.253
CUAAAUC | 0.066

Mixed results
Substance | target | test | test system | conditions | how to read | quantity | result
PhoQ, residues 284 288 289 292 302 303 ASTSDA | PhoP, residues 12 14 15 18 19 IQFRS (Escherichia coli, UniProt P23836) | Sort-seq, refers to: YFP reporter | E. coli | PhoQ-PhoP variant library, with: 10 µM Mg2+ | reference: high Mg2+ state, higher = stronger signaling | fold induction | 19.8

For quick reference, copied from above (series 1):
Sequence | E-score
CGGCACCA | 0.205
AACTGTCC | -0.104
ACGAACTG | -0.0527
AGGAGTGG | -0.194
